Results from different studies.
Protocols differ between the studies behind these lines. Several values in a cell are separate wells, animals, samples, runs or records. ± marks the error that the study gave.
pyrD: Dihydroorotate dehydrogenase (quinone) (pyrD, Acinetobacter baumannii, UniProt B7GZW7)
Kir3.1/Kir3.4: Kir3.1/Kir3.4 (Homo sapiens, UniProt P48544+P48549)
AKR1B1: Aldo-keto reductase family 1 member B1 (AKR1B1, Homo sapiens, UniProt P15121)
GUK1: GUK1 (Homo sapiens, UniProt Q16774)
T1: riboswitch RNA yjdF aptamer, shortened P1/P3/P4, L3/L4 GAAA (Bacillus subtilis); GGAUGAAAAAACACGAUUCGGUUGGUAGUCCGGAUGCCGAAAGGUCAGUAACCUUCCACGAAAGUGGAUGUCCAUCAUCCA

SMILES | tested on | assay | test system | conditions | scale | endpoint | value
CC[C@H](C)[C@H](NC(=O)[C@@H](NC(=O)[C@@H]1CCCN1C(=O)[C@H](CO)NC(=O)[C@H](C)N)C(C)C)C(=O)N[C@@H](Cc1ccc(O)cc1)C(=O)N[C@@H](Cc1c[nH]cn1)C(=O)N[C@@H](CC(C)C)C(N)=O | Interleukin-17 receptor A (IL17RA, Homo sapiens, UniProt Q96F46) | binding, surface plasmon resonance | – | – | – | kon | 5.47e+06 M⁻¹ s⁻¹
O=C(c1ccc(C(=O)N2CCC(N3CCCC3)CC2)c(Nc2ccccc2)c1)N1CCC(N2CCCC2)CC1 | Lethal(3)malignant brain tumor-like protein 3, MBT domains (Homo sapiens, UniProt Q96JM7) | FRAP | human cells | 0.1 µM | – | diffusion coefficient | 0.311 µm2/s
NC(N)=NCCC[C@H](N)C(=O)Nc1ccc2ccccc2c1 | rat aminopeptidase III | substrate | – | – | – | Km | 6.7 µM
C=C(c1ccc(Nc2cc(C)nc3nc(C(C)(F)F)nn23)cc1)C(F)(F)F | pyrD | enzyme activity, inhibitor, colorimetric HTS, refers to: DCIP reduction | – | 3 µM | direction not given | robust Z-score | 14.8
CCCCc1oc2ccc(NS(C)(=O)=O)cc2c1C(=O)c1ccc(OCCCN(CCCC)CCCC)cc1 | Cytochrome P450 2J2 (CYP2J2, Homo sapiens, UniProt P51589) | inactivator | – | together with: astemizole substrate | – | KI | 0.04 ± 0.01 µM
Cc1cc(NC(=O)C2CCc3cc(Cl)ccc3O2)n(C2CCS(=O)(=O)C2)n1 (stereo not drawn) | Kir3.1/Kir3.4 | thallium flux, activator | HEK293 | – | reference: standard compound | Emax | 58%
CCOC(=O)[C@@]12C[C@@H]1[C@@H](n1cnc3c(NCCCCCc4ccccc4)nc(C#Cc4ccccc4)nc31)[C@H](O)[C@@H]2O | SLC6A3 (Homo sapiens, UniProt Q01959) | inhibitor | HEK293 | concentration not given, together with: [3H]dopamine 20 nM | – | dopamine uptake | no effect
NC/C(=C\F)COc1cccc(Cn2c(=S)[nH]c(=O)c3[nH]cnc32)c1 | CACNA1C (Homo sapiens, UniProt Q13936) | peak ion current, inhibitor, automated patch clamp | – | 100 µM, pulse 1 | – | inhibition | 33.6%
Nc1ncnc2c1ncn2[C@@H]1O[C@H](COP(=O)(O)CP(=O)(O)OP(=O)(O)O)[C@@H](O)[C@H]1O | P2X purinoceptor 1 (P2RX1, Homo sapiens, UniProt P51575, K136A) | calcium influx | – | 100 nM | reference: ionomycin response | calcium influx | 36.8% and 38.5% and 52.3%
Oc1ccccc1-c1n[nH]cc1-c1ccnc2ccccc12 | Serine/threonine-protein kinase CLA4 (CLA4, Candida albicans, UniProt O14427) | kinase binding, MIB/MS competition | Candida albicans lysate | 1 µM | reference: DMSO, negative = stronger binding | log2 fold change | 0.01
CC1=NN(c2ccc(Cl)cc2)C(=O)C1=NNc1ccc(S(N)(=O)=O)cc1 | bovine α-glucosidase | enzyme activity, inhibitor, glucose oxidase | – | 500 µg/mL, together with: maltose | – | inhibition | 52.2%
O=C(COP(=O)(O)O)[C@@H](O)[C@H](O)[C@H](O)COP(=O)(O)O | Transcription elongation regulator 1 (Homo sapiens, UniProt O14776) | thermal proteome profiling, refers to: TCERG1 | HepG2 cell lysate | concentration not given, 57 over 37 °C | reference: compound over control | thermal stability ratio | 0.727 and 0.769 and 0.25
C[C@]12C[C@H](O)[C@H]3[C@@H](CCC4=CC(=O)CC[C@@]43C)[C@@H]1CC[C@@H]2C(=O)CO | CYP11B1 (Homo sapiens, UniProt P15538, V320A) | – | nanodiscs | 25 °C, fast phase | – | kon | 10000 M⁻¹ s⁻¹
Cc1cc2c(cc1N1C(=O)c3cccc4c(Cl)ccc(c34)C1=O)n(C)c(=O)n2C | CREBBP (Homo sapiens, UniProt Q92793) | – | – | 10 µM | – | delta Tm | 1.3 °C
COc1cc(/C=C2\SC(=O)N(Cc3nc4ccccc4s3)C2=O)cc(OC)c1OC | AKR1B1 | enzyme activity, inhibitor | – | – | – | Hill slope | -0.565
O=C(O)[C@@H]1CCCN1c1ncnc2[nH]cnc12 (racemic) | Protein transport protein Sec31A (SEC31A, Homo sapiens, UniProt O94979) | binding, affinity selection mass spectrometry | – | – | reference: other proteins in batch | fold enrichment | 0.963
O=C(O)C[C@H](O)[C@H](O)CO | – | binding, MIDAS equilibrium dialysis LC-MS | A2AR-BRIL thermostabilized | concentration not given | reference: no-protein control | log2 fold change | -0.0711
NCCCS(=O)(=O)O | SLC6A6 (Homo sapiens, UniProt P31641, Y138A) | binding, microscale thermophoresis | – | 43.2 nM, fitted curve | higher = more binding | fraction bound | 0.000391
CC(=O)O[C@H](CC(=O)[O-])C[N+](C)(C)C | – | binding, MIDAS equilibrium dialysis LC-MS | A2AR-BRIL thermostabilized | concentration not given | reference: no-protein control | log2 fold change | -0.166
COc1cc(O)c2c(c1)oc(=O)c1c3cc(O)c(O)cc3oc21 | MAL12 (Saccharomyces cerevisiae S288c, UniProt P53341) | fluorescence quenching | – | concentration not given, 304 K | – | number of binding sites | 1.1
CCCCCCCCc1ccc(Nc2cc(C)nc3ncnn23)cc1 | pyrD | enzyme activity, inhibitor, colorimetric HTS, refers to: DCIP reduction | – | 3 µM | direction not given | robust Z-score | 20

SMILES | tested on | assay | test system | conditions | scale | endpoint | value
Cn1cc(-c2ccc(-c3cncc(Cl)c3N3CCC4(CCNC4=O)CC3)cc2)cn1 | COLO 205 | gene expression, microarray, refers to: S100A10 mRNA | – | concentration not given, 6 h | reference: untreated cells | log2 fold change | 6.11
CCN(CCO)CCCC(C)Nc1ccnc2cc(Cl)ccc12 (stereo not drawn) | SCN5A (Homo sapiens, UniProt Q14524) | sodium current | – | 100 µM | – | activation V1/2 | -48.2 ± 4 mV
Nc1ncnc2c1ncn2[C@@H]1O[C@H](COP(=O)(O)OP(=O)(O)O)[C@@H](O)[C@H]1O | GUK1 | ITC | – | molar ratio 0.4975 | – | ΔH | -2.48 kcal/mol
CC(C)[C@H](NC(=O)c1cc(-c2cnn3cc(-c4ccc(OCCN5CCCCC5)cc4)cnc23)cs1)C(F)(F)F | PKN2 (human) | radiometric kinase | – | 15 nM | reference: PKN2 over ULK1 | relative inhibition | 0
O=C(CCCCCCC(=O)Nc1ccccc1)NO | HDAC8 (Homo sapiens, UniProt Q9BY41) | ITC | triethanolamine buffer | concentration not given, pH 7.5 | – | binding stoichiometry | 0.8
Nc1nc(=O)n([C@H]2C[C@H](O)[C@@H](CO)O2)cc1CNCC(CC[C@H](N)C(=O)O)C[C@H]1O[C@@H](n2cnc3c(N)ncnc32)[C@H](O)[C@@H]1O (stereo partly drawn) | DNMT1 (Homo sapiens, UniProt P26358) | radiometric [3H]-SAM | – | concentration not given, together with: SAM, poly(dI-dC) | – | inhibition type | inhibited
Cc1n[nH]c2ccc(-c3cc(OC[C@@H](N)Cc4ccccc4)cnc3-c3ccoc3)cc12 | Cyclin-dependent kinase 1 (CDC28, Candida albicans, UniProt P43063) | kinase binding, competitor, MIB/MS competition, refers to: CDC28 | Candida albicans cell lysate | 1 µM | reference: DMSO | log2 fold change | 0.127
O=C1S/C(=C\c2ccc([N+](=O)[O-])cc2)C(=O)N1Cc1nc2ccccc2s1 | AKR1B1 | enzyme activity, inhibitor | – | – | – | log IC50 | 3.3 log nM
COc1cc(-c2cncc3c2CN(C)Cc2cc(N4CCNCC4)ccc2-3)cc(OC)c1OC | BRSK1 (Homo sapiens, UniProt Q8TDC3) | kinase activity | – | 1 µM, human enzyme, together with: ATP 10 µM | reference: DMSO control | remaining activity | 104%
CC/C=C(\C)C=O | Enoyl-ACP reductase (Thermus thermophilus, UniProt P83818) | substrate, biocatalytic transformation | – | pH 7, 30 °C, aerobic, together with: NADH | – | conversion | 19%
Cn1c[n+]([C@@H]2O[C@H](COP(=O)(O)OP(=O)([O-])OP(=O)(O)OC[C@H]3O[C@@H](n4cnc5c(=O)[nH]c(N)nc54)[C@H](O)[C@@H]3O)[C@@H](O)[C@H]2O)c2nc(N)[nH]c(=O)c21 | DCPS (Homo sapiens, UniProt Q96C86) | substrate, HPLC | – | concentration not given, 120 min | – | hydrolysis | 100%
NC(=O)c1cc(-n2c(CCC(=O)O)nc3ccccc32)cs1 | Ubiquitin carboxyl-terminal hydrolase 16, ZnF-UBD domain (USP16, Homo sapiens, UniProt Q9Y5T5) | – | – | – | – | Kd | > 1000 µM
O=C(O)C1CCCNC1 (stereo not drawn) | SLC6A6 (Homo sapiens, UniProt P31641, G62A) | binding, microscale thermophoresis | – | 15.6 µM, room temperature, together with: 50 nM labelled protein | higher = more binding | normalised MST signal | -0.0657
CN(C)Cc1cc(Nc2ccc(S(F)(F)(F)(F)F)cc2)n2nc(C(C)(F)F)nc2n1 | pyrD | enzyme activity, inhibitor, colorimetric HTS, refers to: DCIP reduction | – | 3 µM | direction not given | robust Z-score | 17.8
Nc1nc2c(ncn2[C@@H]2O[C@H](COP(=O)(O)O)[C@@H](O)[C@H]2O)c(=O)[nH]1 | GUK1 | enzyme activity, NADH-coupled | – | 1000 µM, together with: NaCl 10 mM | – | reaction velocity | 0.0872 µM/s and 0.0876 µM/s and 0.0993 µM/s
CCCN(CCC)S(=O)(=O)c1ccc(-c2n[nH]c(=S)o2)cc1 | P2X purinoceptor 4 (P2RX4, Homo sapiens, UniProt Q99571) | calcium mobilization | MCF7 stably transfected | 100 µM, together with: ATP 100 µM | – | fluorescence increase | 74.4 ± 0.89%
CCc1cc(NC(=O)COc2ccc(C(F)(F)F)cc2C(F)(F)F)n(CC(F)(F)F)n1 | Kir3.1/Kir3.4 | thallium flux, activator | HEK293 | – | reference: standard compound | Emax | 84%
CCCCCCCCCCCCCCCCc1ccc([C@H]2CC[C@H]([N+](C)(C)CCC)CC2)cc1.[I-] | SPHK2 (Homo sapiens, UniProt Q9NRA0) | inhibitor, radiometric flash-plate | cell lysate | together with: sphingosine 5 µM | – | Ki/Km ratio | 5.8
Cc1cc2nc3[nH]c(=O)[nH]c(=O)c3nc2cc1C | T1, riboswitch RNA yjdF aptamer, shortened P1/P3/P4, L3/L4 GAAA (Bacillus subtilis) | fluorescence titration | – | together with: 380 nM lumichrome | – | Kd | 0.04 µM
CCCCC/C=C\C/C=C\C/C=C\C/C=C\CCCC(=O)O | Cytochrome P450 2J2 (CYP2J2, Homo sapiens, UniProt P51589, L2A/S493A/T318V) | substrate | – | 50 µM | – | metabolism rate | 46.3 ± 1.5 pmol/min/nmol CYP2J2
C[C@@H](c1ccc(-n2cnc3c(N)ncnc32)cc1)N1CCc2nn(C)c(Cc3ccccc3)c2C1=O | PNCK (Homo sapiens, UniProt Q6P2M8) | KINOMEscan | – | 0.1 µM | reference: DMSO | remaining binding | 74%

A few entries again:
SMILES | tested on | assay | test system | conditions | scale | endpoint | value
CCCCCCCCc1ccc(Nc2cc(C)nc3ncnn23)cc1 | pyrD | enzyme activity, inhibitor, colorimetric HTS, refers to: DCIP reduction | – | 3 µM | direction not given | robust Z-score | 20
Cn1cc(-c2ccc(-c3cncc(Cl)c3N3CCC4(CCNC4=O)CC3)cc2)cn1 | COLO 205 | gene expression, microarray, refers to: S100A10 mRNA | – | concentration not given, 6 h | reference: untreated cells | log2 fold change | 6.11
CCN(CCO)CCCC(C)Nc1ccnc2cc(Cl)ccc12 (stereo not drawn) | SCN5A (Homo sapiens, UniProt Q14524) | sodium current | – | 100 µM | – | activation V1/2 | -48.2 ± 4 mV
Nc1ncnc2c1ncn2[C@@H]1O[C@H](COP(=O)(O)OP(=O)(O)O)[C@@H](O)[C@H]1O | GUK1 | ITC | – | molar ratio 0.4975 | – | ΔH | -2.48 kcal/mol
CC(C)[C@H](NC(=O)c1cc(-c2cnn3cc(-c4ccc(OCCN5CCCCC5)cc4)cnc23)cs1)C(F)(F)F | PKN2 (human) | radiometric kinase | – | 15 nM | reference: PKN2 over ULK1 | relative inhibition | 0
